Experimental data of several laboratories.
Protocols differ between the studies behind these lines. Numbers after ± are the reported error.

Chains of the proteins cited; added tags and fusions are not shown. Residues count along the entry.
UniProt P55210, whole entry, looked up: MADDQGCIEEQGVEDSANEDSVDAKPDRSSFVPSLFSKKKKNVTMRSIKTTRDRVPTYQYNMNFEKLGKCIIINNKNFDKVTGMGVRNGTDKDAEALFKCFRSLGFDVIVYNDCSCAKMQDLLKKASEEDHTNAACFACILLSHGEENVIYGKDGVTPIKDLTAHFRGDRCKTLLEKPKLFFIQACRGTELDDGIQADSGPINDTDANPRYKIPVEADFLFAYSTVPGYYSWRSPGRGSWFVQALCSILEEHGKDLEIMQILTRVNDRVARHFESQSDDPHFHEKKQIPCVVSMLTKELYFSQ
UniProt P05177, whole entry: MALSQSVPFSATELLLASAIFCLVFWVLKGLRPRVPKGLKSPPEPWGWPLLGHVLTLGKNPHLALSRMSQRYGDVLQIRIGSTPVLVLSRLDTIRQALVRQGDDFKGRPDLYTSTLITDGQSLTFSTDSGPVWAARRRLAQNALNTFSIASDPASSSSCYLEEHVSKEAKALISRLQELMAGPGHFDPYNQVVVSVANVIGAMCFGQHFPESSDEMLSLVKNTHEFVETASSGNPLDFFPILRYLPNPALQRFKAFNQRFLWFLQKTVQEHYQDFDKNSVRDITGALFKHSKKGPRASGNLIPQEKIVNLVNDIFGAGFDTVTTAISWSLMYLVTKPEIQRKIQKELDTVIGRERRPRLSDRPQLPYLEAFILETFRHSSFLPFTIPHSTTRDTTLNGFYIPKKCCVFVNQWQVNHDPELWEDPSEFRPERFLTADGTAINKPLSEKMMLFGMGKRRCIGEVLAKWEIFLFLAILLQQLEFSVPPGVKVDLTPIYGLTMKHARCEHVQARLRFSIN
UniProt P37136, 32-614 limits assumed: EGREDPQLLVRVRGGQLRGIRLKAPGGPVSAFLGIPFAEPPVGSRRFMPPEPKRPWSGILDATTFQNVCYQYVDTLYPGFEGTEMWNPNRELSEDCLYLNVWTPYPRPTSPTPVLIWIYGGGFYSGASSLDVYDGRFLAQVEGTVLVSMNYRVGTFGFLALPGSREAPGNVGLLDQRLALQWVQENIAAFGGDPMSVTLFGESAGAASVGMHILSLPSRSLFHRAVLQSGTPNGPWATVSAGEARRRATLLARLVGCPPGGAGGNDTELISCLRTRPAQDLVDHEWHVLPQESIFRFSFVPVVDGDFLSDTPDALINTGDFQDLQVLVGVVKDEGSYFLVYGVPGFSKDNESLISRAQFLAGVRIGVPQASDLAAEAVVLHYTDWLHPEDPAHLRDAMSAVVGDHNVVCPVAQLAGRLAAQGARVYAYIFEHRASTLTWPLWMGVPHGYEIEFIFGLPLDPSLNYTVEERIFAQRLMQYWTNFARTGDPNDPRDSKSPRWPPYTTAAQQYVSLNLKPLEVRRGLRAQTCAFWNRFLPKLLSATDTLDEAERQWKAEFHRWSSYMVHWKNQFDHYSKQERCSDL
UniProt P08684, whole entry: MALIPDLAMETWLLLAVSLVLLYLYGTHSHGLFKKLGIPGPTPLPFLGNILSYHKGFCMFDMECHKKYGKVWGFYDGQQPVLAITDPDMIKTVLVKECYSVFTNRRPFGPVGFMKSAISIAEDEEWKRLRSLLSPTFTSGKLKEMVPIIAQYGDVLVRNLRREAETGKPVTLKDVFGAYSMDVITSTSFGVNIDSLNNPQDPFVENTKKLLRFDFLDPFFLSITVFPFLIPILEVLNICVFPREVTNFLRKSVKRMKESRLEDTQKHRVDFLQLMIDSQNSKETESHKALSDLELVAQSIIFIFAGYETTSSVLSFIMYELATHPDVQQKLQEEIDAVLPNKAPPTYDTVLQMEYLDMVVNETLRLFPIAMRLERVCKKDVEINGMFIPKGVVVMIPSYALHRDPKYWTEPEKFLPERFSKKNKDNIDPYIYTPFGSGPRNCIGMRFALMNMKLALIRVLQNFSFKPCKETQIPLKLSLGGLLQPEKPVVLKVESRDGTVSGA
UniProt P42574, whole entry, looked up: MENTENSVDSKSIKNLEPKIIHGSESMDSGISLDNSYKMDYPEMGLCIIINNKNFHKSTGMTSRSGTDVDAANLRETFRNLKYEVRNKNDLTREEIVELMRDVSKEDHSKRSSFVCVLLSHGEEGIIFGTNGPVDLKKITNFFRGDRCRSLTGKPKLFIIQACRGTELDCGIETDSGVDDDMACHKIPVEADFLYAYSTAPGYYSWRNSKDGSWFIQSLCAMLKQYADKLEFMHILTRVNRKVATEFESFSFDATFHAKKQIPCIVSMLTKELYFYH
UniProt P36544, 23-502 limits assumed: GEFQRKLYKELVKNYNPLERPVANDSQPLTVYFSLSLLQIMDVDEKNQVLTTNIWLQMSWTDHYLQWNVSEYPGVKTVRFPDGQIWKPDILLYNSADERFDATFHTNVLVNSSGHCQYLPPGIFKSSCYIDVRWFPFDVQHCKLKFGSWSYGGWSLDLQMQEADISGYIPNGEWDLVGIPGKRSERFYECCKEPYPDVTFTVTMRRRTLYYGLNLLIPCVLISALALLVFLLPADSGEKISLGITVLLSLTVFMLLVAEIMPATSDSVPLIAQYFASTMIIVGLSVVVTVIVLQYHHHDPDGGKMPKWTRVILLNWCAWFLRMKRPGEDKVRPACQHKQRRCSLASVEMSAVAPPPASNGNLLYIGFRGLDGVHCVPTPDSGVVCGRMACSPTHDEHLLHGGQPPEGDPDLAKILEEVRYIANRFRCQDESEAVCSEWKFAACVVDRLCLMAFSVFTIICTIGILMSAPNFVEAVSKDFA

SMILES	target or system	assay	test system	conditions	how to read	measurement	value
O=C(Nc1cccc(C2=NCCN2)c1)c1ccc(-c2ccc(C(=O)Nc3cccc(C4=NCCN4)c3)cc2)cc1	HepG2	–	–	–	–	CC50	> 100 µM
Cc1nn(-c2ccc(Cl)cc2)c2c1C(c1ccc([N+](=O)[O-])cc1)C(C#N)=C(N)O2 (stereo not drawn)	Vero E6	–	–	6.3 µM	–	viability	67.2%
CC(C)[C@H](NC(=O)CNC(=O)[C@H](COP(=O)(O)O)NC(=O)[C@@H](NC(=O)[C@H](CCC(=O)O)NC(=O)[C@H](CC(=O)O)NC(=O)CCNC(=O)Cc1cc(=O)oc2cc(N)ccc12)C(C)C)C(=O)N[C@@H](CCCCNc1ccc([N+](=O)[O-])cc1[N+](=O)[O-])C(=O)N[C@@H](CC(=O)O)C(N)=O	Caspase-7 (CASP7, Homo sapiens, UniProt P55210)	substrate	–	pH 7.2, 37 °C	–	kcat	0.001 s⁻¹
CCOC(=O)c1c(-c2ccc(Cl)cc2Cl)n(-c2nc(-c3ccc(Cl)cc3)c3c(NC(=O)c4ccccc4)nnc-3[nH]2)[nH]c1=O	UACC-257	SRB	–	–	–	CC50	6.1 µM
NC12CC3CC(F)(CC(C1)c1ccccc13)C2	Cytochrome P450 1A2 (CYP1A2, Homo sapiens, UniProt P05177)	enzyme activity, inhibitor, fluorescence	–	10 µM	–	inhibition	9 ± 2%
Cc1nn(-c2ccc(Cl)cc2)c2c1C(c1cc(Cl)ccc1Cl)C(C#N)=C(N)O2 (stereo not drawn)	Vero E6	–	–	1.6 µM	–	viability	82%
CC1(C)N=C(N)N=C(N)N1c1cccc(OCCCc2ccccc2)c1	Pseudomonas aeruginosa	broth microdilution	PAO1	without thymidine	–	MIC90	> 128 µM
COP(=O)(OC)Oc1ccc([N+](=O)[O-])cc1Cl	Acetylcholinesterase (Ache, Rattus norvegicus, UniProt P37136)	enzyme activity, inhibitor	rat, postnatal day 12, rat brain homogenate	15 min, 37 °C	–	IC50	0.131 µM
C[C@@H](O)[C@@H]1NC(=O)[C@H]2NC(=O)[C@@H](NC(=O)CN)CSSC[C@H](NC(=O)[C@H](CCCNC(=N)N)NC(=O)[C@@H]3CCCN3C(=O)[C@H](CC(=O)O)NC1=O)C(=O)N[C@@H](CCCNC(=N)N)C(=O)N[C@@H](Cc1ccc(O)c(I)c1)C(=O)N[C@@H](CCC(N)=O)C(=O)N[C@H](C(=O)N[C@H](CC(=O)N[C@@H](CCCNC(=N)N)C(=O)O)Cc1ccc(O)cc1)CSSC2(C)C	–	RP-HPLC	25% human serum	150 µM, 24 h, 37 °C	–	remaining globular isomer	94%
CCOC(=O)C1=C(C)N(c2cccc(C(F)(F)F)c2)C(=O)N(CC(=O)N(C)C)[C@@H]1c1ccc(C#N)cc1	Cytochrome P450 3A4 (CYP3A4, Homo sapiens, UniProt P08684)	–	human liver microsomes	pH 7.4, with: midazolam	–	IC50	> 50 µM
Cc1nn(-c2ccc(Cl)cc2)c2c1C(c1cccc(Cl)c1Cl)C(C#N)=C(N)O2 (stereo not drawn)	Vero E6	–	–	1.6 µM	–	viability	80.2%
CC(C)[C@H](NC(=O)[C@H](CO)NC(=O)[C@H](CC(=O)O)NC(=O)[C@H](CCC(N)=O)NC(=O)CCNC(=O)Cc1cc(=O)oc2cc(N)ccc12)C(=O)N[C@@H](CC(=O)O)C(=O)N[C@@H](Cc1ccccc1)C(=O)N[C@@H](COP(=O)(O)O)C(=O)N[C@@H](CC(N)=O)C(=O)N[C@@H](Cc1c[nH]cn1)C(=O)N[C@@H](CC(=O)O)C(=O)N[C@@H](CCCCNc1ccc([N+](=O)[O-])cc1[N+](=O)[O-])C(N)=O	Caspase-3 (CASP3, Homo sapiens, UniProt P42574)	substrate	–	unit not given	relative to: unphosphorylated substrate over phosphorylated	kcat/Km decrease	~58
COc1cc(C2C(C#N)=C(N)Oc3c2c(C)nn3-c2ccc(Cl)cc2)ccc1O (stereo not drawn)	Vero E6	MTT	–	100 µM	–	viability	43.3%
Cc1ccc2[nH]cc(CNCC3(N4CCCC4)COC3)c2c1	U87	single-dose screen	–	30 µM, 48 h	relative to: DMSO control	viability	92.6%
C=C(CC)C(=O)c1ccc(OCC(=O)NCCOCCOCCOCCC(=O)NCCN(CCNC(=O)CCOCCOCCOCCNC(=O)COc2ccc(C(=O)C(=C)CC)c(Cl)c2Cl)CCNC(=O)[C@H](CNC(=O)CCN2C(=O)CC(SC[C@H](NC(=O)CNC(=O)[C@H](CC(C)C)NC(=O)[C@@H](NC(=O)[C@H](CCCCN)NC(=O)[C@H](CCCCN)NC(=O)[C@H](C)NC(=O)[C@H](CC(C)C)NC(=O)[C@H](C)NC(=O)[C@H](C)NC(=O)[C@H](CC(C)C)NC(=O)[C@H](C)NC(=O)[C@H](CCCCN)NC(=O)[C@H](CC(C)C)NC(=O)[C@H](CC(N)=O)NC(=O)[C@@H](N)[C@@H](C)CC)[C@@H](C)CC)C(=O)O)C2=O)NC(=O)CCCCCN2C(=CC=CC=CC3=[N+](C)c4ccc(S(=O)(=O)O)cc4C3(C)C)C(C)(C)c3cc(S(=O)(=O)[O-])ccc32)c(Cl)c1Cl (stereo partly drawn)	Calm1, Ca2+-bound (Mus musculus, UniProt P0DP26)	binding, fluorescence anisotropy	–	pH 7.4, with: 0.3 mM CaCl2	–	Kd	0.031 ± 0.008 µM
Fc1ccc2[nH]cc(CNCC3(N4CCCC4)COC3)c2c1	GBM6	–	–	30 µM, 48 h	relative to: DMSO	viability	85.6%
N#Cc1c(-c2ccc(Cl)cc2Cl)n(-c2nc(-c3ccc(Cl)cc3)c3c(NC(=O)c4ccccc4)nnc-3[nH]2)[nH]c1=O	HCC 2998	SRB	–	–	–	CC50	> 100 µM
CC[C@H](C)[C@@H]1NC(=O)[C@H](CCC(=O)O)NC(=O)[C@@H]2CCCN2C(=O)[C@H](Cc2c[nH]cn2)NC(=O)[C@H](CCCNC(=N)N)NC(=O)[C@H](C(C)C)NC(=O)[C@H](CC(N)=O)NC(=O)[C@@H]2CSSC[C@H](NC(=O)CN)C(=O)N[C@@H](CSSC[C@@H](C(N)=O)NC1=O)C(=O)N[C@@H](CO)C(=O)N[C@@H](Cc1c[nH]cn1)C(=O)N1CCC[C@H]1C(=O)N[C@@H](C(C)C)C(=O)N2	Neuronal acetylcholine receptor subunit alpha-7 (CHRNA7, Homo sapiens, UniProt P36544)	ion current, antagonist, two-electrode voltage clamp	Xenopus oocytes	human, with: ACh 300 µM	–	IC50	> 10 µM

Some of these lines once more:
SMILES	target or system	assay	test system	conditions	how to read	measurement	value
COc1cc(C2C(C#N)=C(N)Oc3c2c(C)nn3-c2ccc(Cl)cc2)ccc1O (stereo not drawn)	Vero E6	MTT	–	100 µM	–	viability	43.3%
Cc1ccc2[nH]cc(CNCC3(N4CCCC4)COC3)c2c1	U87	single-dose screen	–	30 µM, 48 h	relative to: DMSO control	viability	92.6%
